Measurements from different studies.
Lines come from different studies, so protocols differ. Several values in a cell are separate wells, animals, samples, runs or records. ± gives the spread as reported.
TDO2: Tryptophan 2,3-dioxygenase (TDO2, Homo sapiens, UniProt P48775)
UniProt P48775, sequence (whole entry, looked up): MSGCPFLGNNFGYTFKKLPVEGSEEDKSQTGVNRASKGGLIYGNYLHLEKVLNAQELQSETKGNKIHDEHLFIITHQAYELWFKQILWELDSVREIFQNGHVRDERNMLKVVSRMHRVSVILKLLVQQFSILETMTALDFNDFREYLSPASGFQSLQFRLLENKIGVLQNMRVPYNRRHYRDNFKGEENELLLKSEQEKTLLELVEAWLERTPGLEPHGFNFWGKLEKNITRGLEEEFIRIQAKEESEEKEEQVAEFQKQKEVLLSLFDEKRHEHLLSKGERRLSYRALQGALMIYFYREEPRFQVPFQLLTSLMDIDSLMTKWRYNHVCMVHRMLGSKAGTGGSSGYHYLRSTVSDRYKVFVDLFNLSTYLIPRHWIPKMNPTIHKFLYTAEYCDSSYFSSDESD
FGFR1: Fibroblast growth factor receptor 1 (FGFR1, Homo sapiens, UniProt P11362)
UniProt P11362, sequence (whole entry, looked up): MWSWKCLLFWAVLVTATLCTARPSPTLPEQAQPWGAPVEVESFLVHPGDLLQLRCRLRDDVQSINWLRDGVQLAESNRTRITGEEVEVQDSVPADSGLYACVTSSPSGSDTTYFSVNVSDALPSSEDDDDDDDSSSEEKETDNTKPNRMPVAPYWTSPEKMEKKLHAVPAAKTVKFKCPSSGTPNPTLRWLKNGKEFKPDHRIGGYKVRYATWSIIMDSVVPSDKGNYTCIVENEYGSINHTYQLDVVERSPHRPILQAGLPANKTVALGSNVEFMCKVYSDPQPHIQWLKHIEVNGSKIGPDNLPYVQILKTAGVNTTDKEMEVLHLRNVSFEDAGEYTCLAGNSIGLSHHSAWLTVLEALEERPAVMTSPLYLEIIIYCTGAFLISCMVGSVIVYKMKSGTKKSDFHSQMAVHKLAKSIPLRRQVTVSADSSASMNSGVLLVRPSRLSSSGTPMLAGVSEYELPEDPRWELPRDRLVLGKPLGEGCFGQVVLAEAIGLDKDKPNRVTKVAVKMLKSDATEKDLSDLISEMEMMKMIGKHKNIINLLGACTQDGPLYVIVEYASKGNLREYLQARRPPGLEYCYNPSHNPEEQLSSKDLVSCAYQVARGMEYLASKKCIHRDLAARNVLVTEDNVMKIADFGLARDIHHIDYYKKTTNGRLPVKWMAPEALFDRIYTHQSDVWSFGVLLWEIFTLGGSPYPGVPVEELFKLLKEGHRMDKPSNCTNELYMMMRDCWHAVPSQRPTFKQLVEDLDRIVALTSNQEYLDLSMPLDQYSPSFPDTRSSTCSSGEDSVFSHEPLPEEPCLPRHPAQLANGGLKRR
UniProt P48029, sequence (whole entry, unmodified, looked up): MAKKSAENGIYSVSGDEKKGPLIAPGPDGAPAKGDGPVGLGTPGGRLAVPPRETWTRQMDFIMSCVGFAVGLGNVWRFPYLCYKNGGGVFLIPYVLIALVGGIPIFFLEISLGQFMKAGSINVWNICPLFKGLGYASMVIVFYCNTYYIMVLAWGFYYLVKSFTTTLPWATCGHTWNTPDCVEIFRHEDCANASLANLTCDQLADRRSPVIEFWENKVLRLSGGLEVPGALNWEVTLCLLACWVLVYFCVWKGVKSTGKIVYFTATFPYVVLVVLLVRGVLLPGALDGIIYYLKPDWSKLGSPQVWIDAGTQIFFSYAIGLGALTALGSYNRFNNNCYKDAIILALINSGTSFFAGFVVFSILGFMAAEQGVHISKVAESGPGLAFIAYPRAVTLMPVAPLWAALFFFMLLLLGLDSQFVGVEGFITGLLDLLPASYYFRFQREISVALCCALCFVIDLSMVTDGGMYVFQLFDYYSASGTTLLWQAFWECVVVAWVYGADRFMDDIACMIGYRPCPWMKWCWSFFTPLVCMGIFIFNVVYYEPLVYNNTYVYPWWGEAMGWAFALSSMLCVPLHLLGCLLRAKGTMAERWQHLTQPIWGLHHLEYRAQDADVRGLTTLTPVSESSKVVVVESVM
UniProt P28845, sequence (whole entry, looked up): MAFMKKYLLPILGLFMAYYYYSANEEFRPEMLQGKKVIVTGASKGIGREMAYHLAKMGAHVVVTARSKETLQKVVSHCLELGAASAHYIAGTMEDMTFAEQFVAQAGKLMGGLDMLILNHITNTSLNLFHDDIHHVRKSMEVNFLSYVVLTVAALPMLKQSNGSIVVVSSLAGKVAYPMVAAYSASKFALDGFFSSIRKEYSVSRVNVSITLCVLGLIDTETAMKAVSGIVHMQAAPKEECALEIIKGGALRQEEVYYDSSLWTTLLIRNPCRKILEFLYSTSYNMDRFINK
UniProt O60235, sequence (whole entry, looked up): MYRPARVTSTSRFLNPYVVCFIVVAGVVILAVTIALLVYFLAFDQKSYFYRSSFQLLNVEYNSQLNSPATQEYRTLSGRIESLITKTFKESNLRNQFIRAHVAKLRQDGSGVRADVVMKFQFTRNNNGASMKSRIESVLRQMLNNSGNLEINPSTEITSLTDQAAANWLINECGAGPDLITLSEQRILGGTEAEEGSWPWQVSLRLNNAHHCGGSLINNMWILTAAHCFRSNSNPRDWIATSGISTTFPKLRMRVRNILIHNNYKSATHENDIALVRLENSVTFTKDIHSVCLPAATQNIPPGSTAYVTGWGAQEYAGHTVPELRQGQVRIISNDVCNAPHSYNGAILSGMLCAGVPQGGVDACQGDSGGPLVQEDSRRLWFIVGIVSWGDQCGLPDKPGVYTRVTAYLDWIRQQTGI
UniProt P16050, sequence (whole entry, looked up): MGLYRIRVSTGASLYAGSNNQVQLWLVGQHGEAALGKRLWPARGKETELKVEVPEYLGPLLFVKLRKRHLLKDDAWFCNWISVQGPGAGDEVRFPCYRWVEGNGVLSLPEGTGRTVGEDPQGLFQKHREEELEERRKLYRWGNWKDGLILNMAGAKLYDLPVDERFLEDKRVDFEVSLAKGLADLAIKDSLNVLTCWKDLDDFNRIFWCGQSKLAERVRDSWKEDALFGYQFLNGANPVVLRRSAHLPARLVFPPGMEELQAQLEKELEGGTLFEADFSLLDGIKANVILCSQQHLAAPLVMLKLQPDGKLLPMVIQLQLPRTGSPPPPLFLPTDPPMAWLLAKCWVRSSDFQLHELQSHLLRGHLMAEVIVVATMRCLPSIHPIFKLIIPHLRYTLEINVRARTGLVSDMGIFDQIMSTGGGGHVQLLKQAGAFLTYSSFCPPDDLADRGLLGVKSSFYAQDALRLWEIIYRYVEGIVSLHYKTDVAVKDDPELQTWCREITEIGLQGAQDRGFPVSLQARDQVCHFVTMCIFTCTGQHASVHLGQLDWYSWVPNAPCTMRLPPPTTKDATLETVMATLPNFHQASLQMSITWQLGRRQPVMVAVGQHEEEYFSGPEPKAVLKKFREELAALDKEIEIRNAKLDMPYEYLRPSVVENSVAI
UniProt P28236, sequence (whole entry, looked up): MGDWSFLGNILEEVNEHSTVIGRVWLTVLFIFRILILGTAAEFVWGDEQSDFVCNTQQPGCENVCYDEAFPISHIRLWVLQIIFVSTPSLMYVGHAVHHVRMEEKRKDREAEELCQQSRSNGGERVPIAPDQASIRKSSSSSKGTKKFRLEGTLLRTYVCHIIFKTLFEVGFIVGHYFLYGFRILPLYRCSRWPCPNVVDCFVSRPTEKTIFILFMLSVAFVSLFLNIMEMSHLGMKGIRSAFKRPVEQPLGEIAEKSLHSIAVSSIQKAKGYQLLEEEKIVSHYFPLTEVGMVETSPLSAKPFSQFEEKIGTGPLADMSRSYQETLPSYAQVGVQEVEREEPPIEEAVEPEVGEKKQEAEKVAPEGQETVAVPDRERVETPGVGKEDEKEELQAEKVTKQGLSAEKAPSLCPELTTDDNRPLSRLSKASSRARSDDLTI
UniProt P07948, sequence (whole entry, looked up): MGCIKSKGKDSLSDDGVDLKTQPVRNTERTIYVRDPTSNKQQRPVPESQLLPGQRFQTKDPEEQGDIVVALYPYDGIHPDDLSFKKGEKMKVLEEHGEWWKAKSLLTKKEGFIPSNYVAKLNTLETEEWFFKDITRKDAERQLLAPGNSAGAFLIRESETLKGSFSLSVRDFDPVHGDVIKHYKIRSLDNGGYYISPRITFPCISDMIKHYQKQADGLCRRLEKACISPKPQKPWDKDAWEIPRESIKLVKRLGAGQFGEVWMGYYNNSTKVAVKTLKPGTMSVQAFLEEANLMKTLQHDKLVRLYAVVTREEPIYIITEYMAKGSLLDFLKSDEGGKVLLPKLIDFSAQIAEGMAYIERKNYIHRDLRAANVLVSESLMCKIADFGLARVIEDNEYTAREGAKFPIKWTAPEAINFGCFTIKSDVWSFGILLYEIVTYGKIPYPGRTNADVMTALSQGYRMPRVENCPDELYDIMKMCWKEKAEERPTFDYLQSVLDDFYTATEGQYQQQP
UniProt Q969F8, sequence (whole entry, looked up): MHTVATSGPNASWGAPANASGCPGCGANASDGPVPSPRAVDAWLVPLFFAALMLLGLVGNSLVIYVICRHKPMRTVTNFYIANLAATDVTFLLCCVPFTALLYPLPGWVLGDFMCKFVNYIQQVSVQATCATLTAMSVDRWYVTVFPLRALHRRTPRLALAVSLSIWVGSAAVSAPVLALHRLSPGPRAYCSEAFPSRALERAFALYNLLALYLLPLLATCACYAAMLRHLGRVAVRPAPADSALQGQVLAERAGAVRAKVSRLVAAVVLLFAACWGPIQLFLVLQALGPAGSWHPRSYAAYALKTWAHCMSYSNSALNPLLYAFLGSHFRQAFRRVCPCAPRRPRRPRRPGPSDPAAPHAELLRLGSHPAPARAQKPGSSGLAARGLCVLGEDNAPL
UniProt P63146, sequence (whole entry, looked up): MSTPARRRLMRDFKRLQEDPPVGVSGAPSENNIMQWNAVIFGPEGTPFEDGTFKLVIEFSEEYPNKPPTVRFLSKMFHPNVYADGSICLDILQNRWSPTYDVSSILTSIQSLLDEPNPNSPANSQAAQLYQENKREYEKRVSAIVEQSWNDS
UniProt Q07817, sequence (whole entry, looked up): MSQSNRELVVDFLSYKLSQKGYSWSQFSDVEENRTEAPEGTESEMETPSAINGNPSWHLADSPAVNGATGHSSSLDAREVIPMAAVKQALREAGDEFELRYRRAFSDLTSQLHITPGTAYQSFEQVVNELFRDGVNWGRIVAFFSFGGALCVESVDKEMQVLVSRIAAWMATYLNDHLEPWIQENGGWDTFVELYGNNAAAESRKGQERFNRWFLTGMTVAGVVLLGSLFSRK

With CC[C@H](C)[C@H](NC(=O)[C@H](CCCNC(=N)N)NC(=O)[C@H](CCCNC(=N)N)NC(=O)[C@H](CC(C)C)NC(=O)[C@H](C)NC(=O)[C@@H]1CCC(=O)N[C@@H](CNC(=O)CCl)C(=O)N[C@@H]([C@@H](C)CC)C(=O)N[C@@H](C)C(=O)N1)C(=O)NCC(=O)N[C@@H](CC(=O)O)C(=O)N[C@@H](C)C(=O)N[C@@H](Cc1ccccc1)C(=O)N[C@@H](CC(N)=O)C(=O)N[C@@H](C)C(=O)N[C@@H](C)C(=O)N[C@@H](Cc1ccc(O)cc1)C(N)=O the IC50 was 1750 ± 500 nM (Bcl-2-like protein 1 (BCL2L1, Homo sapiens, UniProt Q07817); BID BH3 peptide binding, inhibitor, DELFIA displacement; 2 h, 1% DMSO).
CC(C)C[C@H](NC(=O)CNC(=O)[C@H](Cc1ccccc1)NC(=O)[C@H](CO)NC(=O)[C@H](CC(N)=O)NC(=O)[C@H](Cc1c[nH]c2ccccc12)NC(=O)[C@H](CC(N)=O)NC(=O)[C@@H](N)Cc1ccc(O)cc1)C(=O)N[C@@H](CCCNC(=N)N)C(=O)N[C@@H](C)C(N)=O has an IC50 of over 200 nM (KiSS-1 receptor (KISS1R, Homo sapiens, UniProt Q969F8); ligand displacement, radioligand; cell membranes).
The IC50 of O=C(O)[C@@H]1Cc2c([nH]c3ccccc23)[C@@H](c2ccc(C(F)(F)F)cc2C(F)(F)F)N1 is reported as over 5000 nM (MEP cytidylyltransferase IspD (Plasmodium falciparum, UniProt Q8I273); enzyme activity, inhibitor, fluorimetric pyrophosphate; 60 nM enzyme).
With Cc1ccc(O)c(C(=O)Nc2ccc(CN)cc2)c1 the IC50 was 2400 ± 300 nM (Transmembrane protease serine 11D (TMPRSS11D, Homo sapiens, UniProt O60235); enzyme activity, inhibitor; 15 min preincubation, added: Boc-VPR-AMC 100 µM).
With O=c1c(OCc2ccccc2)c(-c2cccs2)oc2ccccc12 the IC50 was 420 ± 80 nM (β-glucosidase; enzyme activity, inhibitor).
[64Cu+2].c1cnc(CNCc2ccc(CN3CCCN4CCNCCCN(CC4)CC3)cc2)nc1 has a tissue uptake of 1.5 ± 0.16 %ID/g (CXCR4; NOD/SCID mouse, U87 xenografts, U87 tumour; 90 min, added: AMD3465 25 mg/kg sc).
CC(=O)NC(c1ccccc1)(c1ccccc1)c1ccccc1Cl: IC50 “no effect” (Gap junction alpha-8 protein (Gja8, Mus musculus, UniProt P28236); gap junction channel current, inhibitor, dual whole-cell voltage clamp; N2a transfected with Cx50).
The IC50 of Cc1sc(Nc2ccccc2)nc1C(=O)O is reported as over 500000 nM (TDO2; inhibitor; added: L-tryptophan 400 µM).
Under “substrate inhibition Ki”, CC(C)=CCCC(C)=CCc1cc(-c2coc3cc(OC4OC(C(=O)O)C(O)C(O)C4O)ccc3c2=O)ccc1O (stereo not drawn) is recorded as 5500 ± 1470 nM (glucuronidation, substrate; monkey liver microsomes).
COC1=Cc2c(cc(O)c3cc(C)c(OC)cc23)C(C)(C)C1=O gave an IC50 of 91100 nM (TDO2; enzyme activity, inhibitor).
N=C(N)NCCC[C@@H]1NC(=O)[C@H](CCCCNC(=O)CNC(=O)CNC(=O)CNC(=O)CC[C@H](NC(=O)CNC(=O)CNC(=O)CNC(=O)CN2CCN(CC(=O)O)CCN(CC(=O)O)CCN(CC(=O)O)CC2)C(=O)NCC(=O)NCC(=O)NCC(=O)NCCCC[C@@H]2NC(=O)[C@@H](Cc3ccccc3)NC(=O)[C@H](CC(=O)O)NC(=O)CNC(=O)[C@H](CCCNC(=N)N)NC2=O)NC(=O)[C@@H](Cc2ccccc2)NC(=O)[C@H](CC(=O)O)NC(=O)CNC1=O [indium-111 labelled] has a tissue uptake of 1.2 ± 0.24 %ID/g (female athymic nu/nu mice, eyes; intravenous, 0.5 h).
CCCN(CC(=O)N(CCC)CC(=O)N(CC(N)=O)Cc1cn(CCCNC(=O)CCCOc2cccc(-c3nc4ccc(-c5nc6ccc(N7CCN(C)CC7)cc6[nH]5)cc4[nH]3)c2)nn1)C(=O)CNCc1cn(CCCNC(=O)CCCOc2cccc(-c3nc4ccc(-c5nc6ccc(N7CCN(C)CC7)cc6[nH]5)cc4[nH]3)c2)nn1 has an IC50 of 22000 ± 5000 nM (MBNL1–r(CUG)109 complex; MBNL1 displacement; added: bulk yeast tRNA competitor).
CCC(=O)Nc1cccc(CN2C(=O)N(c3c(Cl)c(OC)cc(OC)c3Cl)Cc3cnc(NCCCCN(CC)CC)nc32)c1 — result for “DTT effect on IC50”: “no effect” (FGFR1; kinase activity, inhibitor, Z'-LYTE; added: DTT 6 mM).
For N=C(N)NCCC[C@@H]1NC(=O)[C@H](CCCCNC(=O)CC[C@H](NC(=O)CC[C@H](NC(=O)CN2CCN(CC(=O)O)CCN(CC(=O)O)CCN(CC(=O)O)CC2)C(=O)N[C@@H](CCC(=O)NCCCC[C@@H]2NC(=O)[C@@H](Cc3ccccc3)NC(=O)[C@H](CC(=O)O)NC(=O)CNC(=O)[C@H](CCCNC(=N)N)NC2=O)C(=O)NCCCC[C@@H]2NC(=O)[C@@H](Cc3ccccc3)NC(=O)[C@H](CC(=O)O)NC(=O)CNC(=O)[C@H](CCCNC(=N)N)NC2=O)C(=O)NCCCC[C@@H]2NC(=O)[C@@H](Cc3ccccc3)NC(=O)[C@H](CC(=O)O)NC(=O)CNC(=O)[C@H](CCCNC(=N)N)NC2=O)NC(=O)[C@@H](Cc2ccccc2)NC(=O)[C@H](CC(=O)O)NC(=O)CNC1=O [indium-111 labelled], the tissue uptake was 0.14 ± 0.07 %ID/g (female athymic nu/nu mice, brain; intravenous, 72 h).
The IC50 of COc1cc2nccc(Oc3ccc(NC(=S)NC4CC4)c(C(F)(F)F)c3)c2cc1C(N)=O is reported as 242 nM (FGFR1).
For O=C(NO)c1ccc(CC(=O)N(CCO)c2ccccc2)cc1, the IC50 was 17000 nM (HDAC (Lucilia cuprina egg nuclear extract); enzyme activity, inhibitor, fluorometric).
N#Cc1cnc(Nc2nc3ccccc3o2)nc1-c1cccc(F)c1F has an IC50 of 1910 nM (Metabotropic glutamate receptor 5 (Grm5, Rattus norvegicus, UniProt P31424); calcium signal, antagonist).
For O=C(O)c1ccccc1-c1c2ccc(=O)cc-2oc2cc(O)ccc12, the IC50 was over 100000 nM (Ubiquitin-conjugating enzyme E2 B, with Rad18 (Homo sapiens, UniProt P63146); Rad6-Rad18 ubiquitination activity, inhibitor, AlphaScreen).
For O=C(CSc1ccc(Cl)cc1)Nc1ccc2scnc2c1, the IC50 was 27300 nM (Transient receptor potential cation channel subfamily V member 1 (Trpv1, Rattus norvegicus, UniProt O35433); ion current, antagonist, two-electrode voltage clamp; oocytes).
For [64Cu+2].c1ccc(CNCc2ccc(CN3CCCN4CCNCCCN(CC4)CC3)cc2)nc1, the tissue uptake was 3.92 ± 0.54 %ID/g (CXCR4; NOD/SCID mouse, U87 xenografts, U87 tumour; 90 min).
For CN1CCN(CC(=O)N2N=C3/C(=C/c4ccccc4)CCCC3C2c2ccccc2)CC1 (mixture of isomers), the AC50 was 3800 nM (Polyunsaturated fatty acid lipoxygenase ALOX15 (ALOX15, Homo sapiens, UniProt P16050); enzyme activity, activator; added: arachidonic acid 50 µM).
The EC50 of COc1ccc(F)cc1CC1(NC(=O)c2cc(N3C[C@@H](C)O[C@H](C)C3)ccn2)CC1 is reported as 1000 nM and ~1000 nM (Sodium- and chloride-dependent creatine transporter 1 (SLC6A8, Homo sapiens, UniProt P48029, P544L); creatine transport rescue; U-2 OS P544L knock-in; 24 h).
For COc1ccc2c(c1)C(=C1Nc3ccccc3C1=NOCC(O)CO)C(=O)N2 (stereo not drawn), the IC50 was 29.8 nM (Tyrosine-protein kinase Lyn (LYN, Homo sapiens, UniProt P07948); enzyme activity, inhibitor, radiometric).
With CN(C)C(=O)c1ccc(C[S+]([O-])CC(=O)C23CC4CC(CC(C4)C2)C3)o1 (stereo not drawn) the IC50 was 144 nM (11-beta-hydroxysteroid dehydrogenase 1 (HSD11B1, Homo sapiens, UniProt P28845); enzyme activity in cells, inhibitor).

Excerpt of the above:
For [64Cu+2].c1ccc(CNCc2ccc(CN3CCCN4CCNCCCN(CC4)CC3)cc2)nc1, the tissue uptake was 3.92 ± 0.54 %ID/g (CXCR4; NOD/SCID mouse, U87 xenografts, U87 tumour; 90 min).
With Cc1ccc(O)c(C(=O)Nc2ccc(CN)cc2)c1 the IC50 was 2400 ± 300 nM (Transmembrane protease serine 11D (TMPRSS11D, Homo sapiens, UniProt O60235); enzyme activity, inhibitor; 15 min preincubation, added: Boc-VPR-AMC 100 µM).
For O=C(CSc1ccc(Cl)cc1)Nc1ccc2scnc2c1, the IC50 was 27300 nM (Transient receptor potential cation channel subfamily V member 1 (Trpv1, Rattus norvegicus, UniProt O35433); ion current, antagonist, two-electrode voltage clamp; oocytes).
